Experimental data from different studies.
Protocols differ between the studies behind these lines. ± marks the error that the study gave.
UniProt P11510, sequence (whole entry, looked up): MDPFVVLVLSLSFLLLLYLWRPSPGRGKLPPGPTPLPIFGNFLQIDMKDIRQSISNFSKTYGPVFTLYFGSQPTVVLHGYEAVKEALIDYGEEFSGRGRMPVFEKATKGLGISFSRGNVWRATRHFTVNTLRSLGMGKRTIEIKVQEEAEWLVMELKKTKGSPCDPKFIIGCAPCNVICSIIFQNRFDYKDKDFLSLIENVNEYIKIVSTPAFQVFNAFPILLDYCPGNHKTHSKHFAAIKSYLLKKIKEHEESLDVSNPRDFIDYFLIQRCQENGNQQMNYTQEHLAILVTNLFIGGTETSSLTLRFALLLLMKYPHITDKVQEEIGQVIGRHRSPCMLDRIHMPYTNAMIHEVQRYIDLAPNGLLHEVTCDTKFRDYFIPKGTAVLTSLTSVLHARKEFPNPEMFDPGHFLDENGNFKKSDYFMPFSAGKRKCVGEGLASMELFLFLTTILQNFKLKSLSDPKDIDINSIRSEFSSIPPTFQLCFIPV
UniProt P08684, sequence (whole entry, looked up): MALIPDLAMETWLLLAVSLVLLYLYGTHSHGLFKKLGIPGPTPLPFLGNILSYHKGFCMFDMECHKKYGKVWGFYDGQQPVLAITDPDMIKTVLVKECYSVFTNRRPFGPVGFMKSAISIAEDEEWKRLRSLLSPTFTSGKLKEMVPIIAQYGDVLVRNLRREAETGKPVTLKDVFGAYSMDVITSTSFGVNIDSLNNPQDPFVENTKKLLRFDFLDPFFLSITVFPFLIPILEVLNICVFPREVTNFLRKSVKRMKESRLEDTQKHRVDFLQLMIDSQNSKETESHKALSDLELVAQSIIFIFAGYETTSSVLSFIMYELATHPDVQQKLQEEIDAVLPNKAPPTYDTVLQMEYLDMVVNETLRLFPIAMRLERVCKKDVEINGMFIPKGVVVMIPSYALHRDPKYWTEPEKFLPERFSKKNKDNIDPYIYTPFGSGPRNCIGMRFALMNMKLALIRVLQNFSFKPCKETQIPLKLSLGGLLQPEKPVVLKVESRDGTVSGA
UniProt P10632, sequence (whole entry, looked up): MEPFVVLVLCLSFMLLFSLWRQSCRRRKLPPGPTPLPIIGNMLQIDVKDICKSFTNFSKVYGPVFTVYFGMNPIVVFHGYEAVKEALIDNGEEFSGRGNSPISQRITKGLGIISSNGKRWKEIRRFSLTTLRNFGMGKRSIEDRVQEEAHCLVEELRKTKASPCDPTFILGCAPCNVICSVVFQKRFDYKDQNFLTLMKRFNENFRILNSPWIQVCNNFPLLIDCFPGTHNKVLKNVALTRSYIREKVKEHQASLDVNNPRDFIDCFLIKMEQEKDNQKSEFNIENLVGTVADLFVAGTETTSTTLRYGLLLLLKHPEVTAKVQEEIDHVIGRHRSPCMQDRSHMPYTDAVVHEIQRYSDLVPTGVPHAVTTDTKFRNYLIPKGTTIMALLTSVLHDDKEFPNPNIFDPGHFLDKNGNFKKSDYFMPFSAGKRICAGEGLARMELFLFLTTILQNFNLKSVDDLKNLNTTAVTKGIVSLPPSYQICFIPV
UniProt Q08499, sequence (whole entry, looked up): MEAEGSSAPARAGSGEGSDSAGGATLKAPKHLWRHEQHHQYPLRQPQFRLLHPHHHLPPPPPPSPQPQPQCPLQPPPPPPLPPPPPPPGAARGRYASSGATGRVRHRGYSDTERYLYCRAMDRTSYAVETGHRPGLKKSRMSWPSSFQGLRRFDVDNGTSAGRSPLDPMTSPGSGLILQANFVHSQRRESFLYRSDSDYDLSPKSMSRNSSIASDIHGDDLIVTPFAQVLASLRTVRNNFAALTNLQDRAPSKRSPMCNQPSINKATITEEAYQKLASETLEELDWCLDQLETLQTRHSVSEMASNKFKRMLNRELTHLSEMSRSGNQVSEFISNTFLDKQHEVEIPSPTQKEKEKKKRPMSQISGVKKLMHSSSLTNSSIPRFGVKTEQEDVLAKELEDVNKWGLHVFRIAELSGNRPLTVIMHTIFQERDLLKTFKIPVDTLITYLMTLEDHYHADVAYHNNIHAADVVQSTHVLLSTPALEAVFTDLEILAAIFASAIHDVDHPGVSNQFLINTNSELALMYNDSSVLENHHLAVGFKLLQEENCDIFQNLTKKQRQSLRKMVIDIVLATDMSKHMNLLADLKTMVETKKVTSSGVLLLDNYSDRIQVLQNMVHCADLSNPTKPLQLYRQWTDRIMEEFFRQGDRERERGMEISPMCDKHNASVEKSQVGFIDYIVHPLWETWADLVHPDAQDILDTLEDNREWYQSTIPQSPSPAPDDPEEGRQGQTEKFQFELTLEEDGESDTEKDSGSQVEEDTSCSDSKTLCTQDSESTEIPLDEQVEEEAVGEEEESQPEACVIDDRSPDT
UniProt O75469, sequence (whole entry, looked up): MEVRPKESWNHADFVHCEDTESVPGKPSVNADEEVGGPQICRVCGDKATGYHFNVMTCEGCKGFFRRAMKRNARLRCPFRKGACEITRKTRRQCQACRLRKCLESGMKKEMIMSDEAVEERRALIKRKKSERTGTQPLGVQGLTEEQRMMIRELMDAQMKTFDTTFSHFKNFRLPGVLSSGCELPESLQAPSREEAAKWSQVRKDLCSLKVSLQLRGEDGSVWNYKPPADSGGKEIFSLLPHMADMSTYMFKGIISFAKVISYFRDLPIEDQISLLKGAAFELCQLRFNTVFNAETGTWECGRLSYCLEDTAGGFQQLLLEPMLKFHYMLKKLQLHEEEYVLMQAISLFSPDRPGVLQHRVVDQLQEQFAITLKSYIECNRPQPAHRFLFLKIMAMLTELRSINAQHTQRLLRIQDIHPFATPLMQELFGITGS

Structure (SMILES)	tested on	test	test system	conditions	scale	quantity	value
N[C@H](CSC(F)(F)[18F])C(=O)O	C6 tumour model		male nude, tumour	intravenous, 3.7 MBq, 75 min, tumour-bearing		tracer uptake	3.56 %ID/g
CC(=O)N[C@H](C(=O)N[C@H](C(=O)N[C@@H](CCCNC(=N)N)C(=O)N1Cc2ccccc2C[C@H]1C(=O)N[C@@H](Cc1ccccc1)C(N)=O)C1CCCCC1)C(C)C	human PBMC	Bio-Plex multiplex, item: IL-7		500 µg/mL, 24 h		cytokine level	0.6 ± 0.5 pg/mL
[11CH3]Oc1ccc(Cc2cn[nH]c2)nc1-c1cccc([N+](=O)[O-])c1	3',5'-cyclic-AMP phosphodiesterase 4D (PDE4D, Homo sapiens, UniProt Q08499)	PET	human, brain	concentration not given, last 50 min of 20 to 120 min		increase of apparent VT	30%
O=C(O)CCC(NP(=O)(O)OCCC[C@@H](NC(=O)CC[C@H](NC(=O)CCCCCNC(=O)c1ccc([18F])cc1)C(=O)O)C(=O)O)C(=O)O (stereo partly drawn)	CWR22Rv1 tumour model		host not given, lung	4 h, tumour-bearing		tracer uptake	0.159 %ID/g
N#C[C@@H]1CCCN1C(=O)CNC(=O)c1ccnc2ccc(OCCCN3CCN(C(=O)CCc4ccc5c(c4)CN4CCN(Cc6cc(CCC(=O)O)ccc6O)CC(=O)[O][Al-]([18F])([O]C(=O)C4)[O]5)CC3)cc12 (stereo partly drawn)	U-87 MG tumour model		host not given, tumour	2 h, tumour-bearing		tracer uptake	12.8 %ID/g
[64Cu+2].c1ccc(CNCc2ccc(CN3CCCN4CCNCCCN(CC4)CC3)cc2)nc1	CXCR4		NOD/SCID mouse, U87 and U87-stb-CXCR4 xenografts, bladder	iv, 60 min, ex vivo		tissue uptake	4.4 ± 2.86 %ID/g
COc1ccc2cc(NC(=O)c3cc(-c4ccncc4)nc4ccccc34)ccc2c1	Cytochrome P450 3A4 (CYP3A4, Homo sapiens, UniProt P08684)	substrate, item: naphthalene-hydroxylated metabolite M2	baculosomes			kcat	0.62 min⁻¹
[64Cu+2].c1cnc(CNCc2ccc(CN3CCCN4CCNCCCN(CC4)CC3)cc2)nc1	CXCR4		NOD/SCID mouse, U87 and U87-stb-CXCR4 xenografts, bladder	iv, 450 min, ex vivo		tissue uptake	1.63 ± 0.96 %ID/g
Cn1c(=O)oc2ccc(-c3ccc(CC(C#N)NC(=O)C4CNCCCO4)c(F)c3)cc21 (stereo not drawn)			human	oral, 10 mg once daily, TEAE, multiple ascending dose		monocyte count increased incidence	11.1%
Clc1cccc(CNCCCNc2nc3ccccc3[nH]2)c1	Trypanosoma brucei				reference: MRC-5 SV2 TC50 over EC50	selectivity index	147
CCCCCCCCCCCCCCCC[n+]1ccn(Cc2ccccc2)c1C	Trypanosoma brucei	cell viability, flow cytometry, PI	bloodstream form	24 h		EC50	0.34 ± 0.01 µM
NS(=O)(=O)Nc1ncnc(OCCOc2ncc(Br)cn2)c1-c1ccc(Br)cc1	Cytochrome P450 2C12, female-specific (Cyp2c12, Rattus norvegicus, UniProt P11510)	metabolite formation	female rat, recombinant enzyme	scaled by relative mRNA abundance		contribution to total CLint	19%
CC(C)CCCC(C)CCCC(C)CCO[C@@H]1O[C@H](CO)[C@@H](O[C@H]2O[C@H](CO)[C@@H](O)[C@H](O)[C@H]2O)[C@H](O)[C@H]1O (stereo partly drawn)		dynamic surface tension	water	0.0145 mmol/L		diffusion coefficient	~1.9e-10 m²/s
Cc1cc2occ(CC(=O)N3CCC(C(=O)NCc4ccccc4)CC3)c2cc1C	Trypanosoma brucei	cell viability, flow cytometry, PI	bloodstream form	24 h		EC50	~25 µM
CCCN(CC(=O)N(CCC)CC(=O)N(CCC)CC(=O)N(CCC)CC(=O)N(CC(=O)N(CCC)CC(=O)N(CCC)CC(=O)N(CCC)CC(=O)N(CCC)CC(=O)N(CC(=O)N(CCC)CC(=O)N(CCC)CC(=O)N(CCC)CC(=O)N(CCC)CC(=O)N(CC(N)=O)Cc1cn(CCCNC(=O)CCCOc2cccc(-c3nc4ccc(-c5nc6ccc(N7CCN(C)CC7)cc6[nH]5)cc4[nH]3)c2)nn1)Cc1cn(CCCNC(=O)CCCOc2cccc(-c3nc4ccc(-c5nc6ccc(N7CCN(C)CC7)cc6[nH]5)cc4[nH]3)c2)nn1)Cc1cn(CCCNC(=O)CCCOc2cccc(-c3nc4ccc(-c5nc6ccc(N7CCN(C)CC7)cc6[nH]5)cc4[nH]3)c2)nn1)C(=O)CNCc1cn(CCCNC(=O)CCCOc2cccc(-c3nc4ccc(-c5nc6ccc(N7CCN(C)CC7)cc6[nH]5)cc4[nH]3)c2)nn1	C2C12	flow cytometry		5 µM, 48 h		propidium iodide-only positive cells	0.03%
C=CC(=O)Nc1cc(Nc2nccc(-c3cn(C)c4ccccc34)n2)c(OCC(F)(F)F)nc1N(C)CCN(C)C	Cytochrome P450 2C8 (CYP2C8, Homo sapiens, UniProt P10632)	enzyme activity, inhibitor	human, liver microsomes	33.3 µM		activity vs control	82%
CCC(=O)N(C)c1ccc(Cl)c(Cl)c1	Nuclear receptor subfamily 1 group I member 2 (NR1I2, Homo sapiens, UniProt O75469)	reporter gene, agonist		0.32 µM	reference: vehicle	fold activation	1.21 fold
CCCN(CC(=O)N(CCC)CC(=O)N(CCC)CC(=O)N(CCC)CC(=O)N(CC(=O)N(CCC)CC(=O)N(CCC)CC(=O)N(CCC)CC(=O)N(CCC)CC(=O)N(CC(N)=O)Cc1cn(CCCNC(=O)CCCOc2cccc(-c3nc4ccc(-c5nc6ccc(N7CCN(C)CC7)cc6[nH]5)cc4[nH]3)c2)nn1)Cc1cn(CCCNC(=O)CCCOc2cccc(-c3nc4ccc(-c5nc6ccc(N7CCN(C)CC7)cc6[nH]5)cc4[nH]3)c2)nn1)C(=O)CNCc1cn(CCCNC(=O)CCCOc2cccc(-c3nc4ccc(-c5nc6ccc(N7CCN(C)CC7)cc6[nH]5)cc4[nH]3)c2)nn1	C2C12	flow cytometry		5 µM, 48 h		compound fluorescence-only positive cells	71%
